Experimental data pooled from the literature.
Parts stem from different laboratories: compare values within a part only.

Study 1
Target: Phosphate system positive regulatory protein PHO4, full length, GST-tagged (PHO4, Saccharomyces cerevisiae, UniProt P07270, residues 1-312)
Technique: competition protein-binding microarray
Molecule type: double-stranded DNA, one strand shown
Medium: in vitro
Concentration: 2 µM
Setting: whole 60-bp probe, lowest competitor level
With: Cbf1 competitor, 0.05 µM
Reading: higher = stronger binding
Shared flanks, not repeated: … GTCTTGATTCGCTTGACGCTGCTG
Construct (chain): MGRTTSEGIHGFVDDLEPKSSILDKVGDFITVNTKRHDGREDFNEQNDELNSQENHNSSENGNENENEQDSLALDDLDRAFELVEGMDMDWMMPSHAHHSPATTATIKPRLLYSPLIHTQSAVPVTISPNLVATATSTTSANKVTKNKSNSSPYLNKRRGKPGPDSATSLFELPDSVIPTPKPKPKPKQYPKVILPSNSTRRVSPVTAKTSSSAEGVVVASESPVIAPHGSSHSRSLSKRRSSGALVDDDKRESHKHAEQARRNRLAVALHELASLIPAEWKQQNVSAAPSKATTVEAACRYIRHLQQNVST
Strand | fluorescence intensity
TGCGCAACAACTTGATAGGTGGGTGTATGTCTAGAA | 4780 a.u.
TTCAACCCTTCCAACGCCGTGACGGGCCCTCCGGAC | 3030 a.u.
CGTCCTAGTGATTGTCGCGTGGGTGCCATGAGGAAG | 10400 a.u.
AGAAGCTAAGACACTGTTCTCTTGACTAAATGAAAG | 3160 a.u.
AGTTGGCGATCAAAGCACGTGATGGGTTTTCCAAAT | 16800 a.u.
GACTTTAGCTGCAACGGCGTGGGTATGCCGCAGCGG | 7800 a.u.
GAATCTCCGCATATACATGTGGTCGGCATCGTTGTC | 10800 a.u.
CTGTCATCATGTACTCATGTGCCCGCGCGCGCGCTT | 9320 a.u.

Study 2
Target: Interferon regulatory factor 5, full length, phosphomimetic (IRF5, Homo sapiens, UniProt Q13568-2, residues 1-514, K96S/S451D/S453D/S456D/S462D)
Technique: protein-binding microarray
Molecule type: double-stranded DNA, one strand shown
Medium: in vitro
Concentration: 250 nM
Setting: 60-bp whole probe
With: salmon DNA 0.4 mg/ml
Baseline: random background probes
Reading: higher = stronger binding
Strand | log fluorescence [z-score]
GCCTAGCACGAAGGTATCGGTTTCGGGACGTGCTAGGTCTTGATTCGCTTGACGCTGCTG | 8.47
GCCTAGCACTCAGTGATCAGTCTGATACTGTGCTAGGTCTTGATTCGCTTGACGCTGCTG | -0.0245
GCCTAGCACGACGATATCATTTTCGAGACGTGCTAGGTCTTGATTCGCTTGACGCTGCTG | 3.31
GCCTAGCACACCACTCCAGTTCTGGGAAAGTGCTAGGTCTTGATTCGCTTGACGCTGCTG | -0.292

Study 3
Target: Histone acetyltransferase KAT6A, winged helix 1, GST fusion (KAT6A, Homo sapiens, UniProt Q92794, residues 1-85)
Technique: protein binding microarray
Molecule type: double-stranded DNA, one strand shown
Medium: in vitro
Concentration: not given
Setting: 8-mer, flanks averaged, mean of 2 arrays, mostly near background
Baseline: not given
Reading: higher = stronger binding
Construct (chain): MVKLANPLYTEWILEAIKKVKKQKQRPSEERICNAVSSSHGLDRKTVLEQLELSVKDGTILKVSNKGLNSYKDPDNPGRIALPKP
Strand | E-score
ATGCGAAT | 0.0748
CCCCGAAG | 0.0473
GGCAATCA | -0.0642
CCTATGTA | -0.0698
AGTGACCA | -0.287
CGTGTGGA | -0.0378
CTTGACTC | -0.0808
AGTCATAT | -0.2

Further values, each from its own experiment
Substance | target | assay | system | conditions | how to read | quantity | value
PhoQ, residues 284 288 289 292 302 303 GLASVI | PhoP, residues 12 14 15 18 19 GHCSL (Escherichia coli, UniProt P23836) | Sort-seq, item: YFP reporter | E. coli | PhoQ-PhoP variant library, with: 10 µM Mg2+ | baseline: high Mg2+ state, higher = stronger signaling | fold induction | 21.9
